Assay results collected from several papers.
Parts stem from different laboratories: compare values within a part only.

Series 1 — technique: RNA Bind-n-Seq; form: RNA; matrix: in vitro; concentration: 200 nM; notes: whole 134-nt RNA, ends assumed; added: 150 mM KCl; baseline: input library; reading: higher = stronger binding
Target: Fragile X messenger ribonucleoprotein 1, C-terminal low-complexity region (Fmr1, Mus musculus, UniProt P35922)
The log2 enrichment of `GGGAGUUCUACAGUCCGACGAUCUCCUGUGCUACACAUCGUAUGUACCGAAUCGGGAAAAAGGGUUUUUGGGUUUUUUUGGGAAAGUAUUAUGUUACGCCGUUCGGAUCUGCAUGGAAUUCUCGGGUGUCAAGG` is reported as -0.224.
With `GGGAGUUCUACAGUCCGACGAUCACCAUGCAGGUGGGCAUCUUUGGGAAGUGGGGCAAGGGGGGAAUAGGGAGGGGGGUAACACUUUGGGAACAGGUGGUCCCAGGUCGUUUCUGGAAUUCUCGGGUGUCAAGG` the log2 enrichment was 0.757.
With `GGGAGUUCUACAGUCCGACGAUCCCUGUGCUACACAUCGUAUGUACCGAAUCGGGCCCCCCGGGGCCCCCCGGGCCCCCCGGGAAAGUAUUAUGUUACGCCGUUCGGAUCUGCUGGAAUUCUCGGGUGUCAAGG` the log2 enrichment was -0.856.
For `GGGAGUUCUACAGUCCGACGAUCUAACUUUAGAGGAGGAUCUGAUGGAUAUGGCAGUGGACGUGGAUUUGGGGCUGGCUAUAAUGGGUAUGGAGGAGGACCUGGAGGUGGCAAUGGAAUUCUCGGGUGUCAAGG`, the log2 enrichment was 0.124.
The log2 enrichment of `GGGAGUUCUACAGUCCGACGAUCAAGUCCUGUGCUACACAUCGUAUGUACCGAAUCGGGUUUUUGGGAAAAAGGGAGGGAAAGUAUUAUGUUACGCCGUUCGGAUCUGCACUUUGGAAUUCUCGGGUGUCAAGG` is reported as 0.679.
`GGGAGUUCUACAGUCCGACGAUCUAACUUUAGAGGAGGAUCUGAUGGAUAUGGCAGUGGACGUGGAUUUGGGGAUGGCUAUAAUGGGUAUGGAGGAGGACCUGGAGGUGCCAAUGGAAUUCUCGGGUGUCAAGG` gave a log2 enrichment of 0.181.
`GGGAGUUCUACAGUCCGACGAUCCUGUGCUACACAUCGUAUGUACCGAAUCGGGGAAAAAAAGGAAAAAAAGGGAAAAAAAGGGAAAGUAUUAUGUUACGCCGUUCGGAUCUGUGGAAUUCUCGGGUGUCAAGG` has a log2 enrichment of -0.955.
With `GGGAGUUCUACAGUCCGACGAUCUAUCCCCUAUGAGGCACCACGUAAGACCUCCUGCCCUUAGCUCUCUUGCUCACCACCCAAGAACCUCAGGACAGAAGCGAGAGCCCAUUGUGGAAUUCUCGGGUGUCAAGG` the log2 enrichment was 0.73.
With `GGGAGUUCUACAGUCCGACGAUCCACAGACAACACGCACCCACACAGACACAGAGGGAAGGGGUUGGGAUGGGGACAGGAAACACAGCAGGGCGGGGUAGGACCCCAGCCCCUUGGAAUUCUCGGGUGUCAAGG` the log2 enrichment was 1.21.
For `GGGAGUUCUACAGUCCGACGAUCAGUCCUGUGCUACACAUCGUAUGUACCGAAUCGGUUUUUGGGUUUUUGGGGUUUUUGGAAAGUAUUAUGUUACGCCGUUCGGAUCUGCACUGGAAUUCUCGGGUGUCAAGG`, the log2 enrichment was -0.187.
The log2 enrichment of `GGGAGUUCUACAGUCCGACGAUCUCCUGUGCUACACAUCGUAUGUACCGAAUCGGUUUUUUGGUUUUUUGGGUUUUUUGGGGAAAGUAUUAUGUUACGCCGUUCGGAUCUGCAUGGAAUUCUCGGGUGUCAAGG` is reported as -0.37.
For `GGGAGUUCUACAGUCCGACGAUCCCUGUGCUACACAUCGUAUGUACCGAAUCGGGGAAAAAAAGGGGUUUGGGGUUUUUGGGGAAAGUAUUAUGUUACGCCGUUCGGAUCUGCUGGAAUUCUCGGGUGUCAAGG`, the log2 enrichment was 0.461.
`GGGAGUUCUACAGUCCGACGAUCCUCAAGUCCUGUGCUACACAUCGUAUGUACCGAAUCGGGAGGGAGGGAAAGGGAAAGUAUUAUGUUACGCCGUUCGGAUCUGCACUUCCAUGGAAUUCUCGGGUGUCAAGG` has a log2 enrichment of 1.07.

Series 2 — technique: RNA Bind-n-Seq; form: RNA; matrix: in vitro; concentration: 365 nM; baseline: no-protein control; reading: higher = stronger binding
Target: RNA binding protein fox-1 homolog 2, RRM domain, GST-SBP tag (RBFOX2, Homo sapiens, UniProt O43251-10, residues 100-194)
Notes: natural RNA segment, single round, ends assumed
Residues (chain): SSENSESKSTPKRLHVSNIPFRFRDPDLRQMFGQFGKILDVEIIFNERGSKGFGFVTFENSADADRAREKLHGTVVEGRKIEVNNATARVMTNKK
`GGGAGUUCUACAGUCCGACGAUCGCAAAGGAUAAUGUCACCUCAGGACCAAGGUGGAAACUUACAGCUGAAUCCAGGGCUUACUAAGUAGGGAAGUCAGUUUACAUAUUUCAGUUUUCCUCUGAUGUUUUUGAUGGAAUUCUCGGGUGCCAA` — result for “RBNS enrichment (R)”: 0.456.
For `GGGAGUUCUACAGUCCGACGAUCUCGCAAGAAGAGAUUUGGGCUUAACACUGGGUACUUUGUGGGUCUCUUUUGUGGAUGGCUUCAAGUAACAUCUAUUUCCAUUGAUCCUAGGUUCUUACUGACUGCUUUCUUGGAAUUCUCGGGUGCCAA`, “RBNS enrichment (R)” read 0.215.
`GGGAGUUCUACAGUCCGACGAUCUACCGCUUCAGAGUGCAUGGGGAGCCCGCCCACUAGCCCUGCUUACUGGUGCCUGCUGCCAGCCAUCUGGGAGUGGGUGAACAGCACCCCGCCGCUUCCCCCACACGCUUUGGAAUUCUCGGGUGCCAA` — result for “RBNS enrichment (R)”: 0.29.
`GGGAGUUCUACAGUCCGACGAUCCCUGCCCCUGUGGGACUCAUCCUUGCCCAGGUGAGGGAAGGAGACAGGAUGAGGUCUCGACCCUGUCCCCUAGGGACUGUCCUAGCCAGGUCUCCUGGGAAAGGGAGAUGUGGAAUUCUCGGGUGCCAA`: “RBNS enrichment (R)” 0.467.

Series 3 — technique: universal PBM; form: double-stranded DNA, one strand shown; matrix: in vitro; concentration: not given; reading: higher = stronger binding
Target: Sal-like protein 4, full length isoform B (SALL4, Homo sapiens, UniProt Q9UJQ4-2, residues 1-616)
Notes: 8-mer, flanks averaged, mean of replicates
Target sequence (chain): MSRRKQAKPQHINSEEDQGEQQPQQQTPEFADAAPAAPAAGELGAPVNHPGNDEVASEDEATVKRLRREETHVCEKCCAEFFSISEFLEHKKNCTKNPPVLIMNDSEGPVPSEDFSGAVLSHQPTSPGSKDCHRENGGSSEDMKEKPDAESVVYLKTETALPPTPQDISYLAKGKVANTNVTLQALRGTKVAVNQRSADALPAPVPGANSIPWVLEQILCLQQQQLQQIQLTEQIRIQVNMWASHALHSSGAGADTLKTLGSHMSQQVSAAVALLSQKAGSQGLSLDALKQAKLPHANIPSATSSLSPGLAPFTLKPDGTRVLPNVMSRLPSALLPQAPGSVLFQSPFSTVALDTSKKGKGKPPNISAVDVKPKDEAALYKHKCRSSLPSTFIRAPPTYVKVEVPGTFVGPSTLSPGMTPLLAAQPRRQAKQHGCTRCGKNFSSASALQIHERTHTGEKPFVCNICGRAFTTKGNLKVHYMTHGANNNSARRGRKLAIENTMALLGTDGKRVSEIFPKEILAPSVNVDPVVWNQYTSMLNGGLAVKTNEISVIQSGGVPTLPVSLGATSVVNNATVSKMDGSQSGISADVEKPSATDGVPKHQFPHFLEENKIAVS
For `AGTGGGGG`, the E-score was -0.069.
For `CAGAGGTA`, the E-score was 0.0186.
`GACCCCAC` has an E-score of -0.162.
`GTGAGGTA` gave an E-score of -0.0706.
For `CAACCGTC`, the E-score was -0.261.
`AAGCTTGT` has an E-score of 0.0868.
For `CTTTGGGA`, the E-score was -0.0017.
For `TGTCCCAA`, the E-score was -0.0639.
With `ACAACAAA` the E-score was 0.099.

Other studies, line by line
The fold induction of `PhoQ, residues 284 288 289 292 302 303 QWGLFV` is reported as 1.09 (PhoP, residues 12 14 15 18 19 NQFFI (Escherichia coli, UniProt P23836); Sort-seq, refers to: YFP reporter; E. coli; PhoQ-PhoP variant library, added: 10 µM Mg2+; baseline: high Mg2+ state, higher = stronger signaling).
